{"data": "Published values of several laboratories", "note": "Protocols differ between the studies behind these lines."}
{"SMILES": "C[C@@H]1OC(=O)NN=C1c1ccc(-c2ccc(F)cc2)c(C(F)(F)F)c1", "test": "phase I trial, refers to: Diarrhoea all grades", "test system": "human patients", "setting": "5 mg once daily", "measurement": "patients with adverse event", "result": "0%"}
{"SMILES": "C[C@]1(O)C[C@@](N)(c2ccc(-c3nc4n(c3-c3ccccc3)COc3ccncc3-4)cc2)C1", "test system": "human, advanced or metastatic solid tumours", "setting": "20 mg once daily, phase I dose escalation", "measurement": "patients with Pruritus TEAE", "result": "16.7%"}
{"SMILES": "O=C1Nc2cc3[nH]nc(-c4ccncc4)c3cc2CN1Cc1ccccc1", "test": "CTCAE v4.03", "test system": "human, relapsed or refractory advanced solid tumours", "setting": "intravenous, 7.2 mg/kg", "measurement": "patients with subretinal fluid", "result": "0%"}
{"SMILES": "Cn1cncc1-c1c(F)cncc1NC(=O)c1c(N)nn2cc(F)cnc12", "test system": "human patients", "setting": "oral, 180 mg once daily, 21 days, 2 weeks on 1 week off", "measurement": "patients with upper GI haemorrhage DLT", "result": "0%"}
{"SMILES": "COc1ncnn2ccc(-c3cnc4nc(C)n(Cc5nnc([C@@H](C)F)o5)c4c3)c12", "test system": "human", "setting": "oral, dose not given, grade 5", "measurement": "patients with nausea", "result": "0%"}
{"SMILES": "C=CC(=O)Nc1cc(Nc2nccc(Nc3cc(Cl)c(F)cc3C(C)(C)O)n2)c(OC)cc1N1CC[C@@H](N(C)C)C1", "test system": "human patients", "setting": "oral, 200 mg, treatment-emergent adverse events", "measurement": "patients with fatigue", "result": "6.3%"}
{"SMILES": "CN[C@@H](C)C(=O)N[C@H]1CN(S(=O)(=O)c2cccc(S(=O)(=O)N3CC[C@H]4CC[C@@H](C(=O)NC(c5ccccc5)c5ccccc5)N4C(=O)[C@@H](NC(=O)[C@H](C)NC)C3)c2)CC[C@H]2CC[C@@H](C(=O)NC(c3ccccc3)c3ccccc3)N2C1=O", "test system": "human, advanced solid tumours", "setting": "intravenous, 45 mg weekly, CTCAE version 4.0", "measurement": "patients with any TRAE", "result": "80%"}
{"SMILES": "Cn1nc(NS(C)(=O)=O)c2c(Cl)ccc(-n3c([C@H](Cc4cc(F)cc(F)c4)NC(=O)Cn4nc(C(F)F)c5c4C(F)(F)[C@@H]4C[C@H]54)nc4nc(OCCC(F)(F)F)ccc4c3=O)c21", "test": "refers to: total cholesterol grade 1 increase", "test system": "human", "setting": "200 mg once daily, powder in bottle", "measurement": "patients with laboratory abnormality", "result": "0%"}
{"SMILES": "COc1ccc(-c2c(-c3ccc(C#N)c(F)c3)nc(N3CCC(N)CC3)n(C)c2=O)cc1F", "test": "refers to: oxygen saturation decreased", "test system": "human patients", "setting": "oral, dose not given, dose escalation", "measurement": "patients with serious TEAE", "result": "0%"}
{"SMILES": "Cc1cn([C@H]2O[C@@H](CO[P@@](=O)(N[C@@H](C)C(=O)OC(C)C)Oc3ccccc3)[C@H](O)[C@H]2F)c(=O)[nH]c1=O", "test": "refers to: grade 1/2", "test system": "human", "setting": "10 mg", "measurement": "patients with ALT/AST elevation", "result": "0%"}
{"SMILES": "N[C@@H]1c2ccccc2OC12CCN(c1cnc3c(N4CCCc5ncccc54)n[nH]c3n1)CC2", "test": "refers to: fatigue", "test system": "human advanced or metastatic solid tumours", "setting": "oral, dose not given, phase Ia all doses", "measurement": "patients with adverse event", "result": "23%"}
{"SMILES": "CN(C)C(=O)c1cc2cnc(Nc3ccc(N4CCNCC4)cn3)nc2n1C1CCCC1", "test": "refers to: Pulmonary toxicity, AESI", "test system": "human, HR+/HER2− advanced breast cancer", "setting": "oral, dose not given, grade 4, CTCAE v4.03", "measurement": "patients with adverse event", "result": "0.3%"}
{"note": "Repeated from above:"}
{"SMILES": "COc1ccc(-c2c(-c3ccc(C#N)c(F)c3)nc(N3CCC(N)CC3)n(C)c2=O)cc1F", "test": "refers to: oxygen saturation decreased", "test system": "human patients", "setting": "oral, dose not given, dose escalation", "measurement": "patients with serious TEAE", "result": "0%"}
